Measured values gathered from unrelated publications.
Compare with care: the assays were run in different laboratories. Values joined by “and” are separate records of one study, mostly repeats; a detail may differ.
Target: Cytochrome P450 1A2 (CYP1A2, Homo sapiens, UniProt P05177)
Chain of UniProt P05177 (whole entry, looked up): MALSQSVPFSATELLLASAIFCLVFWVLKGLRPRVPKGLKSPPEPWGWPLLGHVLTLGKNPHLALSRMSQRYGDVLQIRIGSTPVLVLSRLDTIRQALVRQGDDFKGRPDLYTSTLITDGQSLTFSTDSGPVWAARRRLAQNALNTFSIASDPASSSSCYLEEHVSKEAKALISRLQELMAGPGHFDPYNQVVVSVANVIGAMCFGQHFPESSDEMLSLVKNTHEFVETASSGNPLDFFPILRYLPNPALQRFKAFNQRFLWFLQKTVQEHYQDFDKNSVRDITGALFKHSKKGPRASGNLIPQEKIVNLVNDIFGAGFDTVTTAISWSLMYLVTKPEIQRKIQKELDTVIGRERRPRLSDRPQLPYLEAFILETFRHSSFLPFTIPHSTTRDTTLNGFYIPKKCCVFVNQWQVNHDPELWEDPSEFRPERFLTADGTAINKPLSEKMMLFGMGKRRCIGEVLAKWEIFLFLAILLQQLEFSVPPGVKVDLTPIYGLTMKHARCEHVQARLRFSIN

With `O=C(CS(=O)(=O)Cc1ccco1)C12CC3CC(CC(C3)C1)C2` the inhibition was 0% (enzyme activity, inhibitor; 10 µM).
`Cc1ccc(OCC(=O)N(Cc2cccs2)c2ccn[nH]2)cc1` has an inhibition of 41% (enzyme activity, inhibitor, mass spectrometry; human, liver microsomes; 10 µM).
`CC(C)(C)[C@H](NC(=O)[C@H](CCONC(=N)N)NC(=O)Cc1ccc(CNC(=N)N)cc1)C(=O)N[C@@H](CCONC(=N)N)C(=O)NCc1ccc(C(=N)N)cc1`: enzyme activity “no effect” (primary human hepatocytes; up to 100 µM, 2 h).
With `CCC1CC2C(C)=CC3C(=O)CCCC3C=CC(C)=CC2C(=O)O1` (stereo not drawn) the remaining activity was 116% (human liver microsomes; 10 µM, 10 min, pH 7.4, added: phenacetin 20 µM; baseline: untreated).
For `NS(=O)(=O)NCC(F)(F)c1ccccc1F`, the IC50 was > 74 µM and > 120 µM (enzyme activity, inhibitor).
`CC1CCC2(OC1)OC1CC3C4CC=C5CC(OC6OC(CO)C(OC7OC(CO)C(O)C7O)C(O)C6OC6OC(C)C(O)C(O)C6O)CCC5(C)C4CCC3(C)C1(O)C2C` (stereo not drawn) gave a remaining activity of 24.5% (phenacetin O-deethylation; pooled human liver microsomes; 100 µM, 1 h, pH 7.4; baseline: vehicle).
`COc1cc(OC)c(F)c(/C=C/c2cnc3ccn(S(=O)(=O)c4cn(CCF)cn4)c3n2)c1F` has an inhibition of 28% (enzyme activity, inhibitor; human, liver microsomes; 10 µM, 20 min, pH 7.4).
`CC(C)Cn1c(SCC(=O)N2CCc3ccccc3C2)nc2cc(Cl)ccc2c1=O` gave an inhibition of 65% (enzyme activity, inhibitor, fluorescence; insect cell microsomes; 10 µM).
For `C=CC(=O)Nc1cc(Nc2nccc(-c3cn(C)c4ccccc34)n2)c(OCC(F)(F)F)nc1N(C)CCN(C)C`, “activity vs control” read 70.4% (enzyme activity, inhibitor; human, liver microsomes; 0.1 µM).

Repeated from above:
For `NS(=O)(=O)NCC(F)(F)c1ccccc1F`, the IC50 was > 74 µM and > 120 µM (enzyme activity, inhibitor).
